Measured values gathered from unrelated publications.
Each numbered part is a random draw from the data of one study; scales do not carry over between parts. Changes are numbered by the printed parent chain.

Series 1 — technique: RNA Bind-n-Seq; form: RNA; medium: in vitro; concentration: 1 µM; setting: whole 134-nt RNA, ends assumed; with: 150 mM KCl; baseline: input library; reading: higher = stronger binding
Target: Ras GTPase-activating protein-binding protein 1, C-terminal RGG region (G3BP1, Homo sapiens, UniProt Q13283)
Chain of UniProt Q13283 (whole entry, looked up): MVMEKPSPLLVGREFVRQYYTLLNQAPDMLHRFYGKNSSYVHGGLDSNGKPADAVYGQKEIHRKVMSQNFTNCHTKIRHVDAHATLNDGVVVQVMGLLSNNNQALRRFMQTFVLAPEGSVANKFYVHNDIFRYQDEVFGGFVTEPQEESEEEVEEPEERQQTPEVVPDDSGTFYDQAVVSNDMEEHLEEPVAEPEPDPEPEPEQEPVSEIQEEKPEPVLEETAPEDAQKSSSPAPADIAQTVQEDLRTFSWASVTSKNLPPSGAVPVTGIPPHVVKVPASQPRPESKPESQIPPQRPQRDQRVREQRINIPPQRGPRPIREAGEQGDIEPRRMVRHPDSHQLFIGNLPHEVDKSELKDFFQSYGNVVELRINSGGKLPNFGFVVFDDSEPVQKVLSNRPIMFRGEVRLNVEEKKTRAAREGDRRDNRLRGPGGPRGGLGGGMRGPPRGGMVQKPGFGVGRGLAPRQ
Shared flanks, not repeated: GGGAGUUCUACAGUCCGACGAUC … UGGAAUUCUCGGGUGUCAAGG
| Oligonucleotide | log2 enrichment |
| --- | --- |
| GAAAUUAUGGAAGUGGAAAUUACAAUGAUUUUGGAAAUUAUAACCAGCAACCUUCUAACUACGGUCCAAUGAAGAGUGGAAACUUUGGUG | -1.76 |
| CACAGACAACACGCACCCACACAGACACAGAGGGACGGGGUUGGGAUGGGGACAGGGUGCACAGCAGGGCGGGGUAGGACCCCAGCCCCU | 0.473 |
| UCCUGUGCUACACAUCGUAUGUACCGAAUCGGGUUUUUUUGGGAAAAAGGGUUUUUGGGAAAGUAUUAUGUUACGCCGUUCGGAUCUGCA | -0.69 |
| AGUCCUGUGCUACACAUCGUAUGUACCGAAUCGGUUUUUGGUUUUUUUGGUUUUUGGAAAGUAUUAUGUUACGCCGUUCGGAUCUGCACU | -1.68 |
| CCUGUGCUACACAUCGUAUGUACCGAAUCGGGGAAAGGGGUUUUUUUGGGGAAAAAGGGGAAAGUAUUAUGUUACGCCGUUCGGAUCUGC | 0.0296 |
| CAAGUCCUGUGCUACACAUCGUAUGUACCGAAUCGGGGCCGGGGCCGGGGCCGGGAAAGUAUUAUGUUACGCCGUUCGGAUCUGCACUUC | -1.99 |
| UCAAGUCCUGUGCUACACAUCGUAUGUACCGAAUCGGGAGGGUUUUUGGGAGGGAAAGUAUUAUGUUACGCCGUUCGGAUCUGCACUUCC | 1.27 |
| UGGCCCUGGUGGCAUGCGGGGAGGAAGAGGUGGCCUCAUGGAUCGUGGUAGUCCCGGUGGAAUGUUCAGAGGUGGCCGUGGUGGAGACAG | 2.19 |
| AGUCCUGUGCUACACAUCGUAUGUACCGAAUCGGUUUUUUUGGUUUUUUUGGUUUGGAAAGUAUUAUGUUACGCCGUUCGGAUCUGCACU | -1.61 |

Series 2 — target: CCND2, cyclin fold, Cln2 fusion (human); technique: yeast growth competition, sequencing; medium: yeast; setting: weak parent motif; baseline: not given; reading: higher = stronger binding
Parent: REV3L docking peptide (human); PPVIIKYIIINRF; partner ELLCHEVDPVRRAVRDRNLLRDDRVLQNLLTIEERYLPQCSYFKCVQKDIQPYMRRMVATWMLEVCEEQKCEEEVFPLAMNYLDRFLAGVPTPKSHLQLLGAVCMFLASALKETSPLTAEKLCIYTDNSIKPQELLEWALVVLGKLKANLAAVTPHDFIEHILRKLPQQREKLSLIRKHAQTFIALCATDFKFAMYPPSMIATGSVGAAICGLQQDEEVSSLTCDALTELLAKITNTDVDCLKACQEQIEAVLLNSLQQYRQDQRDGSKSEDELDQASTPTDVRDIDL
| Variant | normalised enrichment score |
| --- | --- |
| N11A | 0.266 |
| F13A | 0.408 |
| I8A | 0.0617 |
| V3A | -0.516 |
| I10A | -0.227 |
| I9A | -0.317 |
| I5A | -0.314 |

Series 3 — technique: RNA Bind-n-Seq; form: RNA; medium: in vitro; concentration: 365 nM; baseline: no-protein control; reading: higher = stronger binding
Target: RNA binding protein fox-1 homolog 2, RRM domain, GST-SBP tag (RBFOX2, Homo sapiens, UniProt O43251-10, residues 100-194)
Setting: natural RNA segment, single round, ends assumed
Shared flanks, not repeated: GGGAGUUCUACAGUCCGACGAUC … UGGAAUUCUCGGGUGCCAA
Construct (chain): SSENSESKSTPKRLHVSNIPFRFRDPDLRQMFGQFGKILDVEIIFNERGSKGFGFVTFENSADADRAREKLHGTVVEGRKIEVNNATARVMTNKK
| Oligonucleotide | RBNS enrichment (R) |
| --- | --- |
| CUCGUGCACACUGGAUUGGUUUCUCAGUUGCUGGGCGAGCCUGUACUCUGCCUGACGAGGAACGCUGGCUCCGAAGAGGCCCUGUGUAGAAGGCUGUCAGCUGCUCAGCC | 0.265 |
| ACACGAGCUCUUGUGUUGAAAGUGUCCAGGCCGUAGAACUUCAUUGCUACUGACUUUACACAGUUUACAAGUUUCUCUUUGGACAUAUCUGGUAUUAUUACAGAAAUCUC | 0.446 |
| CUUGAAGAAGUGAAGGCCAACUGUGUGCUCGCCCAACAUUUGCAACCAGGAGGCUUCGAAAAGCAGCGUCUCUGGCAGUCAAGAUAAAAAAGUUGAUAUUGUGUUUUGUG | 1.09 |
| CAACCCCCUCGCCCCAGCAGCAGCUCUGCCAGCCAGCUGAUCCCUGUGGGAUCAGGGGACUGGAGUCACUGUGUCUACACCACCAGCUUCUAGAGGAAUUUGGUCUAUGC | 0.244 |
| GAAAGUCACCUCUGCUAUUGUAGAAAGUGGCAGAAUAUCCAAACUUAACUCUAGCUUCCAUGUCUGUCUUUAUUACCUUCAUCUUCCUACUUCCUGUCCCACCGGCAUCU | 0.734 |
| CCAAACUAGAUACCGAAAGGGCUCCUCAUUUGUCUCUUUUGUCCCAUUGUGGGCAUAUGGUGGGCUCCUUGAGAGGAGGGAGUCUCAGCUGGGGCCUGGCUGCAGAGACC | 0.557 |
| UUUACUGGUCCCAGCUUUUAGGUUCUUUAAGACACUAACAGGACUACAUAGAGGCUUUUUCAGCAUUACUGUGUCGUCUCCGUGCCAGAUGUGGCAAGAUCACCAUUAGC | 0.397 |
| UGCAGACUCUGGGACCUGACAAAACAGUCAGAGCCUGAGUGCACUGCAGCCUGAACUCCCUUGAGCAGCGCUAUAAGGGACUUUGCACUUUAAAAAGGGGAUGCCUGUCA | 0.403 |

Series 4 — technique: competition protein-binding microarray; form: double-stranded DNA, one strand shown; medium: in vitro; concentration: 2 µM; with: Pho4 competitor, 0.05 µM; reading: higher = stronger binding; shared flanks, not repeated: … GTCTTGATTCGCTTGACGCTGCTG
Target: Centromere-binding protein 1, full length, His-tagged (CBF1, Saccharomyces cerevisiae, UniProt P17106, residues 1-351)
Chain of UniProt P17106 (whole entry, looked up): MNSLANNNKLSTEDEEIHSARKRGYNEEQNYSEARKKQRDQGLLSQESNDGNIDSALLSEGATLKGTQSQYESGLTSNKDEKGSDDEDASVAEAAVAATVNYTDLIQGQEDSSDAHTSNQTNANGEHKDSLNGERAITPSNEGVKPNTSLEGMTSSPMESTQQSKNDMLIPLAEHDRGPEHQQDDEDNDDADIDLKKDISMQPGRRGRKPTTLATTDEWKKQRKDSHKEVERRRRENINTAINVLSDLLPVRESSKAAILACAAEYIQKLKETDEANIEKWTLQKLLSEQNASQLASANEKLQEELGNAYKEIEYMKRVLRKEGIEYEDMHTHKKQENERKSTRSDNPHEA
Setting: whole 60-bp probe, lowest competitor level
| Oligonucleotide | fluorescence intensity [a.u.] |
| --- | --- |
| AAAAAGCAAGGTAGACAGGCGTGGAACGCGGAGTAG | 68.3 |
| CATACCCAACCTTGGCTAGTGGGTGAAGATATTTGT | 64.4 |
| TTTATCGTTTTCTGTGACGTGGCCGATGAGCACCAG | 77.7 |
| AAAGCGGTAATTTTTCACGTGACCTCACATATCTAT | 9190 |
| CTTCTGTAAATTTGCTGGGTGGGTGGACGCGCCCCG | 87.3 |
| TAGATTCCTAATTGTCTTGTGACGCTTAAAGCAGGG | 126 |
| ATCACATCAAAACATTGTGGTTCTCTGAACAGCCTA | 84.8 |
| GTATCCGCACCGCAGTTCGTGACAAGTGCCTGCGTT | 65.6 |
| AAGTTCCACAAGGTGCTCGTGTTGACACTGAAAAGT | 104 |
| TCGCCGGACCAAGTTTCCGTGATGGTCGTTCTAGGA | 67.2 |
| AGACATGTCGAATCGCACGCTGTTGCATTAAAAGTA | 75.4 |
| CGTCCTAGTGATTGTCACCTAACTTCCATGAGGAAG | 76.9 |
| TCACTGAACTTCTGTGACCTGCGAGGACCAAGATCA | 72.4 |
| AGGCCAATGCTGCTAAGCGTGCTAAAGCTAAGGCTC | 55.2 |
| CTAACGAAGGTTTGCCGAGTGGGTGACAAGCCAAGT | 61.6 |
| ACACTAGAATTGACTCTCGTGGCCGTAATACGAACA | 77.6 |
| TAAAAAGGCATTGAACTCGTGGTGACGGGCATACCC | 64.4 |
| ATGAAGACGGAATCGCACGGGCCTATTACCTCGGGG | 61.8 |
| AAATTACTAAGTTGACCAGTGGGTGACGCCGTATGA | 67.5 |

Excerpt of the above (series 4):
| Oligonucleotide | fluorescence intensity [a.u.] |
| --- | --- |
| TTTATCGTTTTCTGTGACGTGGCCGATGAGCACCAG | 77.7 |
| CTAACGAAGGTTTGCCGAGTGGGTGACAAGCCAAGT | 61.6 |
| TAGATTCCTAATTGTCTTGTGACGCTTAAAGCAGGG | 126 |
